Assay results from different studies.
A part holds a random share of what one study measured.

Set 1
Target: RING finger protein unkempt homolog, zinc fingers 1-6, SBP tag (UNK, Homo sapiens, UniProt Q9C0B0, residues 30-357)
Chain of UniProt Q9C0B0 (30-357, looked up): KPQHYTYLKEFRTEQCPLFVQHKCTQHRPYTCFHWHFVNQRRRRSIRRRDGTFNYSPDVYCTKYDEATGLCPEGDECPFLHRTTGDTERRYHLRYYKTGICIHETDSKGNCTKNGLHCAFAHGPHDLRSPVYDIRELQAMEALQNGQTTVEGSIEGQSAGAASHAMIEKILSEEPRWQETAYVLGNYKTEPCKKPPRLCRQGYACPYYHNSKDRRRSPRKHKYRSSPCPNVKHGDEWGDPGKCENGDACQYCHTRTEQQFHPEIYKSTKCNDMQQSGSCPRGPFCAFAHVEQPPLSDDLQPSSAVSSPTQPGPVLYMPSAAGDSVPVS
Technique: RNA Bind-n-Seq
Molecule type: RNA
Matrix: in vitro
Concentration: 100 nM
Setting: RNA with constant flanks, ends assumed
Relative to: input RNA pool
Reading: higher = stronger binding
Strand	bound/input enrichment [ratio]
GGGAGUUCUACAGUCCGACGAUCACACUUAUAUUGUGGCAUACCGUCAACAUGGAAGCCGACCAGCUCUGCUGAUUUGAAAUUCCGAUUUUUUAAAUUAUGUACUGGGGACAGGUUUUUGUCGCUUUACAUUGCUUCCCCGUUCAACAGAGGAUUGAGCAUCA	0.545
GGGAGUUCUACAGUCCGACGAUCGAGCUAAAGGAGUCCGCAUCUUUAUUUUUGUAUCAAAAAUAAAGGUUAUUUUGAAAUUAUCCGGAUUUUUACACAAUUCUGAAAUCUGUUGCUUUUGUAAACAAAUUGUUUGAUCUCCGUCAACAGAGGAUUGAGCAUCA	0.274
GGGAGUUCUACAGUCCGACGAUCCACAUCCGGUGAUAUUUGGCCUGGCCUUUCAGCUUAUGAUAACCGUCCCCGAUCACCCCACCGUCCUUCACCUAUUGCUACACCACCCCGUCAGAGUUCAUCUUGCUCUGAUGCUCCCAUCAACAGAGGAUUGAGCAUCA	0.935
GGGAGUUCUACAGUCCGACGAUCACAGGAGCAGCACCGGCUGUUUGAGCUUUGGGGAAAUGAACUUUGCUUUUUAUAUUUAACCCGGAUACUUUUAUAUGAUGGGUGCUUUGAGUGUGAAUGCAGCAGGCUCUCUUGUUUCCGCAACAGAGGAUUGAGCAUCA	0.611
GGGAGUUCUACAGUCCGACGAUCAAGUAUCCCGGUUUACUGUGUUGAGUUGGCAUUGUACAGAAAUUAACAGCCAUAUUGGUCCCGAAACGUUAAACUUAAUUUUUUUCCAUUUGUACAGGGGUAACGCACUGUAUUAAAUAUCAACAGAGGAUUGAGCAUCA	0.34
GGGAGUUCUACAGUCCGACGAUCUGAGCAUACAUAUACAAUGUGUUUCAAAUGCUGCUUGUAAAAUUAAACCAUCAUCCCGAACCGAGUUAAUUUAUUAUAAUCAAGCUACAAACCGGUUUUCUUAAACCAGAGAUGCACUGCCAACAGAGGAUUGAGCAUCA	0.433
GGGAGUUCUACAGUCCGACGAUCGAUUUGGACCUUGGAGCUGAACCAGGGAGCCCGCAAAAGUAAAGCAGACUUAUAAAAUUACCGCUAUGUGCAGCUGCACAACACAGUCCUUCCACCCGCAGCUGUGUUAAAGUAUUUAUACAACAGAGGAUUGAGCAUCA	0.267

Set 2
Target: Sal-like protein 4, full length isoform B (SALL4, Homo sapiens, UniProt Q9UJQ4-2, residues 1-616)
Technique: universal PBM
Molecule type: double-stranded DNA, one strand shown
Matrix: in vitro
Concentration: not given
Setting: 8-mer, flanks averaged, mean of replicates
Reading: higher = stronger binding
Strand	E-score
ATGGTTTG	-0.0638
ACGAAACA	-0.041
ACGAACGC	-0.131
ACGTTAAC	0.103
TTGGTAAA	0.291
ACCGTGAA	-0.175
GTGTTGAA	0.0279
ACCTCAGT	-0.00981
CTTTCCAA	0.0167
CGGCTTCA	-0.0341
AAGCGTGT	0.0685
TGACTCCA	-0.143
ATAGAAGC	0.127
CACCAAAA	0.214
GGGTTACC	-0.322
CAAGCTCG	-0.206
GTAGAGCA	-0.0604
AGACAGGC	-0.193
CACCAAGG	-0.293
AAGTTAAG	-0.051
AGAGGTTG	-0.0617
AATCCGGT	-0.194
GGGCCTAC	-0.321
GCCCCTTA	-0.146
CGTAAACG	-0.15

Set 3
Target: RNA binding protein fox-1 homolog 2, RRM domain, GST-SBP tag (RBFOX2, Homo sapiens, UniProt O43251-10, residues 100-194)
Technique: RNA Bind-n-Seq
Molecule type: RNA
Matrix: in vitro
Concentration: 365 nM
Setting: natural RNA segment, single round, ends assumed
Relative to: no-protein control
Reading: higher = stronger binding
Construct (chain): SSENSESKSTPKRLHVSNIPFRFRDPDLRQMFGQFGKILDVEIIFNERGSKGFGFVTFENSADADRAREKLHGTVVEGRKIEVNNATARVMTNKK
Strand	RBNS enrichment (R)
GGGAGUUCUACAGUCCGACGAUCCCGUGGAAGGCCUAGACCCAGCAGAGACCCCUUGGUGGGUCUGCCAUGCCUGUGGGGAAACACUGCUUCAGAAAGCCUUCACCUACCCUCUGCCUCUAUUUCCCAGGACAUGGAAUUCUCGGGUGCCAA	1.26
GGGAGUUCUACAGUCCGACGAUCAAAAUAAAAAGUUUGUCCUGAACCUUUUACAGAUUUGCCAUAACAGCAUUAAAGUGAUUGAACAGAAGCGGAAGUGUCCGGGGAUGUUUCUGUCCCCCUCGGCAGAGGCUUGGAAUUCUCGGGUGCCAA	0.487
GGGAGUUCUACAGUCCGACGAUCAGCCUUAUUUGAAUGGAUCUUUGAGUUGAGAUCUUCACACUGUCAGUGAGCCCUUGGCUCAGCCCUUGUCACCUGUUUGUAUGGGGACCAUGUUUCCCAAAGCUCAGGUUUGGAAUUCUCGGGUGCCAA	0.344
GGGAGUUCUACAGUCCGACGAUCUGUAGUGGUCAAAGGAGCUCUGAUUGAGCUGGCAGGCCAGGUUUUGUAAAGAGCAAAAUUACUUUCAGGUCCCUUGUUGAGGGAACAGGUCAGCGUUAUCCUGCCAGACAUGGAAUUCUCGGGUGCCAA	0.226
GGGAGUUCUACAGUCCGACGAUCGAAUGGUAACAGAGCCAGCGCUGAAGUCUCCUUUCUUCCUCCCAUCUGGAAGAACAUCAAGAUAUCUUUUUGUGGAUCAAGUUUGAGUACUUGAUCAUUUUUAUAUUACUUGGAAUUCUCGGGUGCCAA	0.741
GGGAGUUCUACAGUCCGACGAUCUCUUCUUUCCAUUCUUCUUGCUACACCCCUUUUCCAGUUGCUGUGGACCAAUGCAUCUCUUUAAAGGCAAAUAUUAUCCAGCAAGCAGUCUACCCUGUCCUUUGCAAUUGUGGAAUUCUCGGGUGCCAA	0.952
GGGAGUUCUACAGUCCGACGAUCUUUGUUUCAAUCUCUGACUAAAAAUACUUAAAUUUGGUUUGUUAAUUCUUAUUUUAGAAAUUAUAAUUUUAGUUUAUAUUAAUUUCGGUUAUAGCUUACUGAAGAAAUCUUGGAAUUCUCGGGUGCCAA	1.26
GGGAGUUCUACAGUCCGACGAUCGGGGCCUGAUGGACACCUUUCCCGGGCGUCUGCAGCUGCCCUGCCCGUGCCCGCCUGCAGUGGUUGGAGACGGGAGUGGCCCUUCGGCUCCCGAGCUCCCUCUGGGGACGUGGAAUUCUCGGGUGCCAA	0.331
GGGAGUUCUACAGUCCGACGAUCAGCCUCGUCUUCUCCUGCCCACAGCCCCUGCCAGAGUUCUUUUGCCCAGCAGAGGCACCCCUCAUGAAGGAAGCCAUUGCACUGUGAAUACUGAACCUGCCUGCUGAACAUGGAAUUCUCGGGUGCCAA	1.19
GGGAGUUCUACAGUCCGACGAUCCUGUAAGGAUGAGCCCAGUUAGUAAGGAUGUUGGUAAUCAGCAGAGACCAUUCUCAAGGGUAGGUGUUCUGCAGCCCCGAAUCAAAUCAUGUGAAAACCCCUUAAAUGAUUGGAAUUCUCGGGUGCCAA	0.558
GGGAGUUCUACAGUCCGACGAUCGUUCUAUAUAAAAAGAUGUUUCUUUGGUAUUCUUCAGCCUGUGUUUUCAAGUUUUACAGAAGCAGAGCUUUUCCCUAAGUUCCUCUUCGGUUCACUGUAGAUCCAGUUCUUGGAAUUCUCGGGUGCCAA	1.42
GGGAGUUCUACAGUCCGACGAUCUCUUGAGUCUCCACAUCAGUCUCACACCAGGGAACUUGGGGGUCCCCCGUUAAACUACAGCUGACCCUGGGCCUCAGGGCGGGAUGGUCCCAAGGUGAGCUCCGUGGACAUGGAAUUCUCGGGUGCCAA	0.508

Set 4
Target: Histone acetyltransferase KAT6A, winged helix 1, GST fusion (KAT6A, Homo sapiens, UniProt Q92794, residues 1-85)
Technique: protein binding microarray
Molecule type: double-stranded DNA, one strand shown
Matrix: in vitro
Concentration: not given
Setting: 8-mer, flanks averaged, mean of 2 arrays, mostly near background
Relative to: not given
Reading: higher = stronger binding
Construct (chain): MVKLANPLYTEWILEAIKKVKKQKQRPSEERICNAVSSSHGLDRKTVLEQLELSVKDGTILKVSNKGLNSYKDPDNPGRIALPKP
Strand	E-score
CCTGTCAC	-0.0472
GGCATCCA	-0.141
GATGATTA	0.0499
ATCGCAAA	0.103
TCTCCCAA	-0.116
ACACAGAG	-0.125
AGGTAAAT	-0.25
GGCCCCGA	0.179
TGTCACAA	-0.126
TGCCACCA	-0.267
AGTCGACA	-0.314
AGCGAACA	0.0021
CCTAAGAC	-0.122
AGAGTTTG	-0.15
ATGACTTC	-0.171
ATGGGAAA	-0.238
TCAGCGCA	0.145
GCGCATCC	0.385
GCCTCATA	-0.0938
AAGCCGGG	0.196
CCCAGAGG	-0.168
CTATTGAC	-0.166
GCCAACCA	0.0901
ACGAGATG	-0.119
CGCCGACG	0.45

Repeated from above (set 4):
Strand	E-score
AGAGTTTG	-0.15
ATGACTTC	-0.171
GGCCCCGA	0.179
CGCCGACG	0.45
ATGGGAAA	-0.238
ATCGCAAA	0.103
CCCAGAGG	-0.168
GCCAACCA	0.0901
AGTCGACA	-0.314
